Published values of several laboratories.
A part holds a random share of what one study measured.

Block 1
Target: Histone acetyltransferase KAT6A, both winged helices, GST fusion (KAT6A, Homo sapiens, UniProt Q92794, residues 1-181)
Method: protein binding microarray
Form: double-stranded DNA, one strand shown
Sample: in vitro
Tested at: not given
Setting: 8-mer, flanks averaged, mean of 2 arrays, mostly near background
Baseline: not given
Direction: higher = stronger binding
Construct (chain): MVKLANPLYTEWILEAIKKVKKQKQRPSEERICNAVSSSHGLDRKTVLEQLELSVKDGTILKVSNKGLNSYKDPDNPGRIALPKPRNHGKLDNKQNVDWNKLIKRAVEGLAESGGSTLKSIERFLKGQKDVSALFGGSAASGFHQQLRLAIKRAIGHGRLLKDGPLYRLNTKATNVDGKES
The E-score of `TCTTGAAA` is reported as -0.0937.
For `ATTTCCGA`, the E-score was 0.0191.
For `GTAGCAAC`, the E-score was -0.0293.
For `ACATCAAT`, the E-score was -0.12.
The E-score of `ACCGTAGC` is reported as 0.0702.
`CAAAACAG` gave an E-score of -0.169.
`AGCGCGGC` gave an E-score of 0.381.
`GCTAGGCA` has an E-score of -0.0337.
For `GTTAGTCA`, the E-score was 0.065.
`TCGCCCAA` gave an E-score of -0.139.
The E-score of `AGTTGAAA` is reported as -0.105.
For `ACGGTAAC`, the E-score was 0.222.
`CTCTGAAA` gave an E-score of -0.107.
The E-score of `AGATGGCA` is reported as -0.0534.
`CTCGTCTA` gave an E-score of -0.171.
`CCATTTAA` has an E-score of -0.113.
`TGCGGCAA` gave an E-score of 0.182.
`CAATTCAC` has an E-score of 0.0738.
`ATGCCATC` gave an E-score of -0.0368.
`ATCCATGA` gave an E-score of -0.231.

Block 2
Target: RING finger protein unkempt homolog, zinc fingers 1-6, GST-SBP tag (UNK, Homo sapiens, UniProt Q9C0B0, residues 30-357)
Sequence of UniProt Q9C0B0 (30-357, looked up): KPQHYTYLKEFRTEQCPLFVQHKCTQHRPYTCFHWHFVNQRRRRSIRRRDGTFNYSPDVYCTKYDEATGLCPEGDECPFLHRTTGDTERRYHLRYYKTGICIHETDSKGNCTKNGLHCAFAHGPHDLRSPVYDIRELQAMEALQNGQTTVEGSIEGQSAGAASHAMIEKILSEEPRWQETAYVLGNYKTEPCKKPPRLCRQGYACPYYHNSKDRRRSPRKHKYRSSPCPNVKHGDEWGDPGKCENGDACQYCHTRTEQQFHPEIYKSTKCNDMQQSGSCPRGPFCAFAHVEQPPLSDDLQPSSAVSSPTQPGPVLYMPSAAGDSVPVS
Method: RNA Bind-n-Seq
Form: RNA
Sample: in vitro
Tested at: not given
Setting: RNA with constant flanks, human-mouse chimeric sites, ends assumed
Baseline: input RNA pool
Direction: higher = stronger binding
`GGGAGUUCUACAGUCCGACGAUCUUAAUCCCCUUUACUGCUCCCCCACUUCUCAUGGUAAUAACAAAGUCUUAUAUUCCCGUCCUAGCUUUUACUCAGAUGGCUUAUGGAGCCGGUUUCCUAGCUUUCUUGGGAGGGAUCAGACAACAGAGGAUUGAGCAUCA` gave a bound/input enrichment of 0.9 ratio.
`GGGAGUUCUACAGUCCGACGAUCUGUAGUUUCGCGGUUCAGGCUUUGUGUGUAGUUCACUUACGGUAUUAAAUUAUUAUUCUGCUUAGCUUAAAGUAAGGAUAAUUGCAUUUAAAGAGGUUACUGAAUGUUACUCUGAAACUUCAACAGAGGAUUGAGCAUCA` gave a bound/input enrichment of 0.273 ratio.
With `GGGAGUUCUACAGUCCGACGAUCUGGCGCCUGCGCUCCCCACUCGUGUUUGUAUUUUUAUUUUUAUAAGAUACAUGUAUUUACAAUUGAGCUUUUGUUACAUAAUGCUGAAAUGCUACUGGAGAUUAUGAAAAAUGUUUCAAUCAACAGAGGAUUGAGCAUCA` the bound/input enrichment was 0.232 ratio.
`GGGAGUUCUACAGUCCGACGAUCUCUUAACUUAUUCAUUUAACUUAUUUUUAUAGCUAGAUAAAUAUUGUUAGUCUUAGACAAUAGCUCACAUCUUUACAGAAGCAUGCCCUCCCUAUCCAUUUGUCUUAUAACAUGACCCAGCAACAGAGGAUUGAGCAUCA` gave a bound/input enrichment of 6.33 ratio.
The bound/input enrichment of `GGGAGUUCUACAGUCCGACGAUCUCUUUAAAAAAAAAAUUACAGGAAAAUACAGUGCUUUCCCUCCCAUAGAUCCACGUUCAAGCUCAAAGGCCAAAACUUUUGCACGGAGCUCAAACAUCUGAUGAAGAAAGAUUUCUGAGACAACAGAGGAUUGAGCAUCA` is reported as 1.33 ratio.
`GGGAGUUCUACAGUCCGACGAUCGGGGAGAAACCUUAUGAAUGCGUUCAGUGUGGGAAAUCCUACAGUCAGAGCUCAAACCUCUUCAGACAUCAGAGACGACACAAUGCAGAAAAACUUUUGAAUGUUGUGAAGGUUUAAGAACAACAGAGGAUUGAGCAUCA` gave a bound/input enrichment of 0.193 ratio.
The bound/input enrichment of `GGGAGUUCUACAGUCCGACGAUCUAAAUUAGGGCUGCCGUUUUCUGUUUCUCCCUGGGCUGCGGAAAGCCAGAAGAUUUUAUCUAGCUUAAACCAGGCUGCUGGUGUUCCCUCUUUUUUUCCACGAGGGUUUUUUUUCCAGCACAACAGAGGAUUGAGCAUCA` is reported as 0.347 ratio.
`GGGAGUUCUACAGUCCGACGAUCGCCACCAGAUCCCAGAAACAUGACCCUUGCUGCCUACAAAGAGAAGAUGAAGGAGCUCCCACUAGUGUCUCUGUUCUGCUCCUGCUUCCUGGCCGAUCCCCUGAAUAAGUCGUCCUACAACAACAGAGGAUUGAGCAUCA` has a bound/input enrichment of 1.01 ratio.
`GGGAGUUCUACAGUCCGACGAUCACUCUUGACUCUUUCCAUCCUCUUCCUUUUCCUCUUGAUCUUCAAGGCCAUGAAUCCCAAAAUAACAGUCUUAGUGGCUAGCACCCAAACAGAGGUGGAAUAAAUCCACCCCAGUGUCUCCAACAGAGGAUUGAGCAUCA` has a bound/input enrichment of 0.629 ratio.
For `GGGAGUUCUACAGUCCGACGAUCCCUCUGCCCCGCUCUGCAGCCUGGGGACACUGGGCUGGGACCAGAAUCCAGCUUUCUUUUAAAACUCUCAGUGUAACUGUAUCCCGUGACAUUUCAUUUUUUUUAAAAGAAAAAAACUUUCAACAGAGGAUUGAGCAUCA`, the bound/input enrichment was 0.285 ratio.
`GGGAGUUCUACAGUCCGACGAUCUUUCUACUGCAGCAGACGAUGCUAAGAAUUAAGGAUCCUAAGAAGUCCCUGGAUUUUUAUACUAGAGUUCUUGGACUGACCCUCCUGCAGAAGCUUGACUUCCCUGCUAUGAAGUUCUCGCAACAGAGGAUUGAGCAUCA` has a bound/input enrichment of 0.401 ratio.

Block 3
Target: Interferon regulatory factor 7, full length, phosphomimetic (IRF7, Homo sapiens, UniProt Q92985, residues 1-503, S101K/S471D/S472D/S475D/S476D/S477D/S483D/S484D/S487D)
Sequence of UniProt Q92985 (whole entry, unmodified, looked up): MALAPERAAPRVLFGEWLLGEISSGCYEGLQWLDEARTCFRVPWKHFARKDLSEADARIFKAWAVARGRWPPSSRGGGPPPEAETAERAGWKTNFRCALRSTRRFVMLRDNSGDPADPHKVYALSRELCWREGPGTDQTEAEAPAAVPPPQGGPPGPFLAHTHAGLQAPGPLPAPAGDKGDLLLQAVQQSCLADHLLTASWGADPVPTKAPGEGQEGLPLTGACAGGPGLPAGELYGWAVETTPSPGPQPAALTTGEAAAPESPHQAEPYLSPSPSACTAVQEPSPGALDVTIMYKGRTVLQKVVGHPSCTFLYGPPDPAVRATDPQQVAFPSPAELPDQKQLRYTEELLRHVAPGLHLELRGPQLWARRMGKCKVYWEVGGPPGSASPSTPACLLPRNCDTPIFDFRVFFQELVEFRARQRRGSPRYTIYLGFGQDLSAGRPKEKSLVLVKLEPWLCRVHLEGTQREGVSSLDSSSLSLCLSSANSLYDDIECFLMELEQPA
Method: protein-binding microarray
Form: double-stranded DNA, one strand shown
Sample: in vitro
Tested at: 250 nM
Setting: 60-bp whole probe
With: salmon DNA 0.4 mg/ml
Baseline: random background probes
Direction: higher = stronger binding
Shared flanks, not repeated: GCCTAGCAC … GTCTTGATTCGCTTGACGCTGCTG
`TATGTTCCCTATTTAAGGCTGTGCTAG` gave a log fluorescence of 4.27 z-score.
`TTAGGTAGCGACTATCGGTTAGTGCTA` has a log fluorescence of -0.672 z-score.
`TTAGATATCGTGTTTCGATTAGTGCTA` gave a log fluorescence of 2.92 z-score.
For `TTAGGGTTCGACTATCGGTTAGTGCTA`, the log fluorescence was 0.121 z-score.
`TCATGGTTCTTGCTTGGTACTGTGCTA` gave a log fluorescence of -0.17 z-score.
For `GACGGTATCGGGATTGGGGACGTGCTA`, the log fluorescence was 0.228 z-score.
`AGCACTCTTCTTTTTTTTCTGTGCTAG` gave a log fluorescence of 0.296 z-score.
For `TTAGGACTGGGGCTCGGTTAGTGCTAG`, the log fluorescence was 0.389 z-score.
For `GACGGTTTCTGGACTGGGGACGTGCTA`, the log fluorescence was 0.862 z-score.
For `TCAGGAAATGGGAAACCCACTGTGCTA`, the log fluorescence was -0.087 z-score.
`ATGAGCTTCAAACCATAACCGTGCTAG` has a log fluorescence of -0.263 z-score.
With `GACGATCTCAGTCTCGCGACGTGCTAG` the log fluorescence was -0.174 z-score.
`TTAGATCTCCGTTTCGATTAGTGCTAG` gave a log fluorescence of 3.51 z-score.
For `GACGGTCTCGGAATGGGGACGTGCTAG`, the log fluorescence was 1.62 z-score.
The log fluorescence of `TTAGTTTTCGGTCTCGGTTAGTGCTAG` is reported as 5.46 z-score.
`TCATTTTTTTTTTTTCTACTGTGCTAG` gave a log fluorescence of 1.07 z-score.
With `GACGGTATCCTTTTCCTTACGTGCTAG` the log fluorescence was 1.26 z-score.
The log fluorescence of `GAAGGTTTCGGTCTCGGGACGTGCTAG` is reported as 7.4 z-score.

Block 4
Target: Ras GTPase-activating protein-binding protein 1, RRM domain (G3BP1, Homo sapiens, UniProt Q13283)
Sequence of UniProt Q13283 (whole entry, looked up): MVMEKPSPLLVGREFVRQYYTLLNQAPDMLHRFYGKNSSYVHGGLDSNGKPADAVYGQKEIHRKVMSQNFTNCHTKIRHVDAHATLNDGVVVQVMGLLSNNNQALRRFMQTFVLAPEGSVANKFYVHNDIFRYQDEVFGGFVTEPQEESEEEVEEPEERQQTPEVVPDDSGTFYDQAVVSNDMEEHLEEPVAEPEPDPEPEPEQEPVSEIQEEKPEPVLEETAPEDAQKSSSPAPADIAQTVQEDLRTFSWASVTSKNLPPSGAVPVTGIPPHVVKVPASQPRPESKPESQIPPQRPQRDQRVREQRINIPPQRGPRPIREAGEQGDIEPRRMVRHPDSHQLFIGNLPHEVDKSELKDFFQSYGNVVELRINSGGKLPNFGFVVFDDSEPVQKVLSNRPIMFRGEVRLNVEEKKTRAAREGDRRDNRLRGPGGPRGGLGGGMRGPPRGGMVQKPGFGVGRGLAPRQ
Method: RNA Bind-n-Seq
Form: RNA
Sample: in vitro
Tested at: 1 µM
Setting: whole 134-nt RNA, ends assumed
With: 150 mM KCl
Baseline: input library
Direction: higher = stronger binding
With `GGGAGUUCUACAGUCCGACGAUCUAUGAGGAUGAGUUGGUGCCCCUUUUUGAGAAGGCCGGACCCAUUUGGGAUCUACGUCUUAUGAUGGAUCCACUGUCCGGUCAGAAUAGAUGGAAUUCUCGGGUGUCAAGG` the log2 enrichment was -0.202.
For `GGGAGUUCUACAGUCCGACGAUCCUCAAGUCCUGUGCUACACAUCGUAUGUACCGAAUCGGUUUGGUUUGGGUUUGGAAAGUAUUAUGUUACGCCGUUCGGAUCUGCACUUCCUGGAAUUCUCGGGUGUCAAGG`, the log2 enrichment was -0.175.
`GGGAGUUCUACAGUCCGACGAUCCAAGUCCUGUGCUACACAUCGUAUGUACCGAAUCGGGUUUGGGAGGGAAAAAGGGAAAGUAUUAUGUUACGCCGUUCGGAUCUGCACUUCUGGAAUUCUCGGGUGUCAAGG` gave a log2 enrichment of 0.864.
For `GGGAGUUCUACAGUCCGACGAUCUCCAUGCAGGUGGGCAUCUUUGGGAAGUGGGGCAAGGGGGGGAUAGGGAGGGGGGUAACACUUUGGGAACAGGUGGUCCCAGGUCGUUUCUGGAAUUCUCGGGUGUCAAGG`, the log2 enrichment was -0.538.
`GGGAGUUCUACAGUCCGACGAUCUGUGCUACACAUCGUAUGUACCGAAUCGGGGAAAAAAAGGGGAAAAAAAGGAAAAAAAGGGGAAAGUAUUAUGUUACGCCGUUCGGAUCUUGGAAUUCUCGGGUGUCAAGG` gave a log2 enrichment of 0.222.
With `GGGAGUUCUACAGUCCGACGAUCCACAGACAACACGCACCCACACAGACACAGAGGGAAGGGGUUGGGAUGGGGACAGGGUGCACAGCAGGUCGGGGUAGGACCCCAGCCCCUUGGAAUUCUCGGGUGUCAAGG` the log2 enrichment was -0.346.
`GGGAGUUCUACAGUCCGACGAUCAAGUCCUGUGCUACACAUCGUAUGUACCGAAUCGGGCCCCGGGCCCCGGGGCCCCGGAAAGUAUUAUGUUACGCCGUUCGGAUCUGCACUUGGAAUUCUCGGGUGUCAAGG` gave a log2 enrichment of -1.55.
`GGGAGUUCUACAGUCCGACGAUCGUCCUGUGCUACACAUCGUAUGUACCGAAUCGGGGAAAAAAAGGGGAAAGGGGUGGGGAAAGUAUUAUGUUACGCCGUUCGGAUCUGCACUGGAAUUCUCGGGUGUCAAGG` has a log2 enrichment of 0.991.
`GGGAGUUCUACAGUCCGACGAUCCACAGACAACGCGCACCCACACAGACACAGAGGGAAGGGGUUGGGAUGGGGACAGGGUGCACAGCAGGGCGGGGUAGGACCCCAGCCCCUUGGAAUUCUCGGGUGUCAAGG` has a log2 enrichment of -0.187.
`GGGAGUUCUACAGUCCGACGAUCUCCUGUGCUACACAUCGUAUGUACCGAAUCGGGAAAAAAAGGGAAAAAAAGGGUUUGGGAAAGUAUUAUGUUACGCCGUUCGGAUCUGCAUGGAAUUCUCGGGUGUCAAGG` has a log2 enrichment of -0.0144.
`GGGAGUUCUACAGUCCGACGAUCACCAUGCAGGUGGGCAUCUUUGGGAAGUGGGGCAAGGGCGGGAUAGGGAGGGGGGUAACACUUUGGGAACAGGUGGUCCCAGGUCGUUUCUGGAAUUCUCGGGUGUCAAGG` gave a log2 enrichment of -0.307.
For `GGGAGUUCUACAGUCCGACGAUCUAAGGCCAGUAAAAUUUUAGUACCUGGAGGUUUGACUCUAAUUUUUGCACUGAUGGUGCCAAAGGGCCCUGAGUCAAAAGGAUAGCCAAGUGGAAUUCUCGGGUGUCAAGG`, the log2 enrichment was -0.283.
`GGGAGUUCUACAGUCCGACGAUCGUCCUGUGCUACACAUCGUAUGUACCGAAUCGGGUUUUUGGGUUUUUGGGAAAAAGGGAAAGUAUUAUGUUACGCCGUUCGGAUCUGCACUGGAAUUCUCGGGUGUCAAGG` gave a log2 enrichment of 0.0316.
With `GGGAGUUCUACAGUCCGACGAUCCUGUGCUACACAUCGUAUGUACCGAAUCGGAAAAAAAGGGGAAAAAAAGGGAAAAAAAGGGAAAGUAUUAUGUUACGCCGUUCGGAUCUGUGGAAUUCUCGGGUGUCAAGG` the log2 enrichment was 0.143.

Other studies, line by line
For `PPAKRRLELGESG`, “binding enrichment score” read 0.666 (human cyclin B1; peptide binding, yeast competitive growth sequencing; peptide, Saccharomyces cerevisiae, cyclin B1-Cln2 fusion; concentration not given, RxL motif peptides; direction not given).

A few entries again (other studies, line by line):
For `PPAKRRLELGESG`, “binding enrichment score” read 0.666 (human cyclin B1; peptide binding, yeast competitive growth sequencing; peptide, Saccharomyces cerevisiae, cyclin B1-Cln2 fusion; concentration not given, RxL motif peptides; direction not given).
